{"data": "Assay results collected from several papers", "note": "Protocols differ between the studies behind these lines. Numbers after ± are the reported error."}
{"Structure (SMILES)": "[2H]c1nc([2H])c(-c2nc([2H])n3c2C([2H])([2H])N=C(c2ccccn2)c2cc(C#C)ccc2-3)o1", "test system": "Sprague Dawley rat, brain", "setting": "oral, 2 mg/kg, cassette dosing", "measurement": "Tmax", "value": "~60 min"}
{"Structure (SMILES)": "CC(C)N1CCCCC1C(=O)NC(Cc1ccc(-c2ccccc2)cc1)B(O)O (centres unmarked)", "test system": "male Sprague-Dawley rats, plasma", "setting": "intravenous, 1 mg/kg, citrate ester", "measurement": "tmax", "value": "4.8 min"}
{"Structure (SMILES)": "O=C(O)/C=C\\c1ccc2occc2c1O[C@@H]1O[C@H](CO)[C@@H](O)[C@H](O)[C@H]1O", "test system": "rat, plasma", "setting": "oral, 217 mg/kg Pc extract, dosed as Pc extract", "measurement": "Tmax", "value": "130 ± 69 min"}
{"Structure (SMILES)": "COCC12CCC(OC)C34C5CC6(O)C(OC)C(O)C(O)(C5C6OC(=O)c5ccccc5)C(C(OC)C13)C4N(C)C2 (centres unmarked)", "test system": "Sprague-Dawley rat, plasma", "setting": "oral, dose not given, with H in PCW extract", "measurement": "Tmax", "value": "35 ± 8.64 min"}
{"Structure (SMILES)": "CN1CCCCC1C(=O)NC(Cc1ccc(-c2ccccc2)cc1)B(O)O (centres unmarked)", "test system": "male Sprague-Dawley rats, plasma", "setting": "intravenous, 1 mg/kg, citrate ester", "measurement": "tmax", "value": "4.8 min"}
{"Structure (SMILES)": "CC[C@H](C)[C@H](NC(=O)[C@H](Cc1ccc(O)cc1)NC(=O)[C@@H](NC(=O)[C@H](CCCNC(=N)N)NC(=O)[C@@H](N)CC(=O)O)C(C)C)C(=O)N[C@@H](Cc1c[nH]cn1)C(=O)N1CCC[C@H]1C(=O)O", "assay": "LC-MS/MS", "test system": "Sprague-Dawley rat both sexes, plasma", "setting": "subcutaneous, 10 mg/kg/day, day 0", "measurement": "Tmax", "value": "15 min"}
{"Structure (SMILES)": "O=c1cc(-c2ccc(O)cc2)oc2c([C@@H]3OC[C@H](O)[C@H](O)[C@H]3O)c(O)c([C@@H]3O[C@H](CO)[C@@H](O)[C@H](O)[C@H]3O)c(O)c12", "test system": "rat", "setting": "intraperitoneal, 150 mg/kg", "measurement": "Tmax", "value": "60 min"}
{"Structure (SMILES)": "CCN1CC2(COC)C(O)CC(OC)C34C5CC6(O)C(OC)C(O)C(O)(C5C6OC(=O)c5ccccc5)C(C(OC)C23)C14 (centres unmarked)", "test system": "Sprague-Dawley rat, plasma", "setting": "oral, dose not given, with H in PCW extract", "measurement": "Tmax", "value": "55 ± 8.64 min"}
{"note": "Excerpt of the above:"}
{"Structure (SMILES)": "COCC12CCC(OC)C34C5CC6(O)C(OC)C(O)C(O)(C5C6OC(=O)c5ccccc5)C(C(OC)C13)C4N(C)C2 (centres unmarked)", "test system": "Sprague-Dawley rat, plasma", "setting": "oral, dose not given, with H in PCW extract", "measurement": "Tmax", "value": "35 ± 8.64 min"}
